Experimental data from different studies.
Parts stem from different laboratories: compare values within a part only. Several values in a cell are separate wells, animals, samples, runs or records.
Chain of UniProt P35348 (whole entry, looked up): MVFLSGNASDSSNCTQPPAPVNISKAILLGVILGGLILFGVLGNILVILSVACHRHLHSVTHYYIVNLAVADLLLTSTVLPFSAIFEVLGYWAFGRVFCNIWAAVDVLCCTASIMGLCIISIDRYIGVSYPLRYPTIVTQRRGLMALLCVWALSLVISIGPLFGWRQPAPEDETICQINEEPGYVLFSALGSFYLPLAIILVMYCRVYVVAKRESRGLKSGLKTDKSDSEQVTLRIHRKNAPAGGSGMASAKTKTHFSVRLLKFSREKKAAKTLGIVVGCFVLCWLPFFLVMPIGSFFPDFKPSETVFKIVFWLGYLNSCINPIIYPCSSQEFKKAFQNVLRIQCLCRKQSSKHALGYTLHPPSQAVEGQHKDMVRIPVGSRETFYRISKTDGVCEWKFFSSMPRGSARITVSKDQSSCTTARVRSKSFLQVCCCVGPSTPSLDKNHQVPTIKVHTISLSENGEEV
Chain of UniProt P23975 (whole entry, looked up): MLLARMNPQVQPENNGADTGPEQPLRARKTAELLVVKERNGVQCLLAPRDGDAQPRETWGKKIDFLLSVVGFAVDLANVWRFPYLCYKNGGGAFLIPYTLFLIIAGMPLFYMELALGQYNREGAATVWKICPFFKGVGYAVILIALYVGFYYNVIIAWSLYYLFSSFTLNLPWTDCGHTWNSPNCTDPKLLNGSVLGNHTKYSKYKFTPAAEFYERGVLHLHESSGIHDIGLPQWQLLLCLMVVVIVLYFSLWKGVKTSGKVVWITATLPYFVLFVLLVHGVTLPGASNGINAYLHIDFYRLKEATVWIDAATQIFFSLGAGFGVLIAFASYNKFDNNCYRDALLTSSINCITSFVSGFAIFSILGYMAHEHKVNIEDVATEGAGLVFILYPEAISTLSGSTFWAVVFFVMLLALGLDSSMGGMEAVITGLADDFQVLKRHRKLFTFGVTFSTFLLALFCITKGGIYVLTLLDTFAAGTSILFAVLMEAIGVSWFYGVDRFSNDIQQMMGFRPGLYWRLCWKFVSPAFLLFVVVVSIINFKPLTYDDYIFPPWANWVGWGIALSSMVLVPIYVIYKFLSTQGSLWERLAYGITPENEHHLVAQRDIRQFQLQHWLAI
Chain of UniProt P62344 (whole entry, looked up): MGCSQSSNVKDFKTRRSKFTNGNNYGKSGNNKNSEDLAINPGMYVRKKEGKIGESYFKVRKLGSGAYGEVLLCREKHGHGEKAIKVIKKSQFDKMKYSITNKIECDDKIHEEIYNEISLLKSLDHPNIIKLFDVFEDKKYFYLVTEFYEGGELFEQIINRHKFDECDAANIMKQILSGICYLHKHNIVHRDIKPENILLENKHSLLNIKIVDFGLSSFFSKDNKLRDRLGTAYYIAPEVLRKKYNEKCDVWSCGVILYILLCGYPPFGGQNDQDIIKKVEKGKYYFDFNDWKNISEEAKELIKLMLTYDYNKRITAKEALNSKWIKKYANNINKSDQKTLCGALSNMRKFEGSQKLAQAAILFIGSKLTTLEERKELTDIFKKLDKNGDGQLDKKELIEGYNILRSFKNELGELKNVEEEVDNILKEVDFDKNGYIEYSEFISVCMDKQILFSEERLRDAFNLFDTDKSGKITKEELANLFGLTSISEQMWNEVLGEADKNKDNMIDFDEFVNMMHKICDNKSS

Block 1
Target: DNA polymerase theta, ATPase domain (POLQ, Homo sapiens, UniProt O75417)
Chain of UniProt O75417 (whole entry, unmodified, looked up): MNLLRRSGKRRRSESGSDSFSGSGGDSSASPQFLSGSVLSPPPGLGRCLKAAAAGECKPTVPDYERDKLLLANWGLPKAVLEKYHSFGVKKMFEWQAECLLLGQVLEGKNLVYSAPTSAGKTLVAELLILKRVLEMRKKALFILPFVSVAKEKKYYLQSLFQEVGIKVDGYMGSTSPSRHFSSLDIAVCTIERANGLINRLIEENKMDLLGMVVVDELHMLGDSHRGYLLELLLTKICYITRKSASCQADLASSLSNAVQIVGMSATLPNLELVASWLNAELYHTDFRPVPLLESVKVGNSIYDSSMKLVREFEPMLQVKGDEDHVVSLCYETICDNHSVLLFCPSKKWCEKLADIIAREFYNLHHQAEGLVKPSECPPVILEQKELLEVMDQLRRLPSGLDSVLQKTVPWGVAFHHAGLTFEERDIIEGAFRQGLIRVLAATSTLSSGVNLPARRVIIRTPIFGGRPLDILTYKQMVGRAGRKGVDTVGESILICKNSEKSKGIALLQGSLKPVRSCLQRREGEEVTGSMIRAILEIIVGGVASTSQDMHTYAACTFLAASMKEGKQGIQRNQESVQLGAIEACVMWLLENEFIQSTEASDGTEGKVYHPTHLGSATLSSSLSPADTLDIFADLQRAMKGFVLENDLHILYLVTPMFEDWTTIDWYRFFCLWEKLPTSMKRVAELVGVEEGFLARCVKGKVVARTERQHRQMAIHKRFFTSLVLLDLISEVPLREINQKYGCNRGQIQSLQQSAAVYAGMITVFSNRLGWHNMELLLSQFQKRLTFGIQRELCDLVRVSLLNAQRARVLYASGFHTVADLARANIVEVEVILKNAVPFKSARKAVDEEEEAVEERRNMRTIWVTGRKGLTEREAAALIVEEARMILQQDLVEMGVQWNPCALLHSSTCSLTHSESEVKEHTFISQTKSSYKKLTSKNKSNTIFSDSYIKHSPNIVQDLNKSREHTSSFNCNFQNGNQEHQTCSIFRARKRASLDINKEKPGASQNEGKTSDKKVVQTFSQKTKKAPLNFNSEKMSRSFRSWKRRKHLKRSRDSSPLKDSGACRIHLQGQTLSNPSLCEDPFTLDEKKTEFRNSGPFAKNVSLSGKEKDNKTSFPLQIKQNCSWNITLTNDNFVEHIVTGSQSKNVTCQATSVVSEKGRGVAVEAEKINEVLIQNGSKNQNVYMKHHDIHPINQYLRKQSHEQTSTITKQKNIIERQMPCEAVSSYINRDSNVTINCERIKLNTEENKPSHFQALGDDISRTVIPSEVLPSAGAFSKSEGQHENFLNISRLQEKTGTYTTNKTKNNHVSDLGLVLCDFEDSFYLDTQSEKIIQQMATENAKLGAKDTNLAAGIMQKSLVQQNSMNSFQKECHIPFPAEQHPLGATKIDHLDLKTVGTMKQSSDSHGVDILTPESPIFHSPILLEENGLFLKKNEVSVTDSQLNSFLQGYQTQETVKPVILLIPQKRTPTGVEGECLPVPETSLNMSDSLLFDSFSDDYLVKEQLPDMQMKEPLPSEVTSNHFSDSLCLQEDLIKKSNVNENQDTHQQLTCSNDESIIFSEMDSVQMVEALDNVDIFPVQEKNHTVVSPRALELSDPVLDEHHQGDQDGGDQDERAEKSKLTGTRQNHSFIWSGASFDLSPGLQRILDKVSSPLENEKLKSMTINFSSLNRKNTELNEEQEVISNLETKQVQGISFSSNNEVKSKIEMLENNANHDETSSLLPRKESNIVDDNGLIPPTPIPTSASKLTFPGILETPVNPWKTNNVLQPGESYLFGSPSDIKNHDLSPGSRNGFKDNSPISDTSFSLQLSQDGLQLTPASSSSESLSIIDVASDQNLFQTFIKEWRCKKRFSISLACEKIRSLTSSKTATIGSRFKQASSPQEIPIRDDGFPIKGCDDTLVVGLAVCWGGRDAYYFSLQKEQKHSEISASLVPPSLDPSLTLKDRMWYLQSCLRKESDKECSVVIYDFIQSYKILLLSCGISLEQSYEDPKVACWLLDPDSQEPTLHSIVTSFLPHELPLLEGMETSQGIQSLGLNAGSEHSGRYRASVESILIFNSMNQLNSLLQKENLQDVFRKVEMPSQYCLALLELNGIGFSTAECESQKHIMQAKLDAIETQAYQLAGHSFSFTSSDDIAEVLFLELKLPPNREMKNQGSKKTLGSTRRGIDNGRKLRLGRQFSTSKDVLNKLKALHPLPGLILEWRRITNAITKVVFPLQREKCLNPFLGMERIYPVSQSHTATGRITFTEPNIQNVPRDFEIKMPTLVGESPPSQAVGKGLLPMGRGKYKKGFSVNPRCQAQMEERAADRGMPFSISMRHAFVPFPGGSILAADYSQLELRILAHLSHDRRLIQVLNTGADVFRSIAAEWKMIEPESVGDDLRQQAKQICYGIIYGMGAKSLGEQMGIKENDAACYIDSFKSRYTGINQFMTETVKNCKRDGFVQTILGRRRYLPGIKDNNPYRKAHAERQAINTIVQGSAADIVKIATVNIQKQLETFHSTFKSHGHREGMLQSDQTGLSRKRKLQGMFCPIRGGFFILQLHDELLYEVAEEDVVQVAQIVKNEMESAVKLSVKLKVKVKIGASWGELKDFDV
Observed: enzyme activity
Action: inhibitor
Tested at: 77 µM
Reference: untreated
Compound	remaining activity [%]
O=c1c2ccccc2[se]n1-c1ccccc1	101
NCCCP(=O)(O)O	95.8
C[C@]12CC[C@H]3[C@@H](CC[C@@]45O[C@@H]4C(O)=C(C#N)C[C@]35C)[C@@H]1CC[C@@H]2O	90.8
NNC(N)=O	99.5

Other studies, line by line
ADRB1: Beta-1 adrenergic receptor (ADRB1, Homo sapiens, UniProt P08588)
Chain of UniProt P08588 (whole entry, looked up): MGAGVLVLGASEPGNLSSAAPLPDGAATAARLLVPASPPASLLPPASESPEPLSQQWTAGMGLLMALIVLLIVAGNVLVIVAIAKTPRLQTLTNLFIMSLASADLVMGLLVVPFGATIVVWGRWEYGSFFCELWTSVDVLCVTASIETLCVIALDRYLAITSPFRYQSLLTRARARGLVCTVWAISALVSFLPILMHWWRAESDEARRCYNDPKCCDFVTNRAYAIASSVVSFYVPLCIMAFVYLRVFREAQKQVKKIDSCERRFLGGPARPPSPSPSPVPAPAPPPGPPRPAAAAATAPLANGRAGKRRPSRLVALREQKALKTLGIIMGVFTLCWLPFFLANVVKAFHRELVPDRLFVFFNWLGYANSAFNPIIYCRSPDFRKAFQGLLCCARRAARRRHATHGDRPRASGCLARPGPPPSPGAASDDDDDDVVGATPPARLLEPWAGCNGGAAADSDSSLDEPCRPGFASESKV
Structure (SMILES)	target or system	observed	technique	tested at	time	quantity	value
Cc1c(N2CCNCC2)nc2ccc(Br)cc2c1C(=O)NC[C@H](CCC(=O)O)c1ccccc1Cl	ADRA1A (Homo sapiens, UniProt P35348)	ligand displacement		10 µM		inhibition	23.3%
CC(Cc1ccccc1)NCCC(c1ccccc1)c1ccccc1 (stereo not shown)	ADRB1					EC50	5.26 µM
O=C1NC(c2ccccn2)Sc2ccccc21 (stereo not shown)	CDPK1 (Plasmodium falciparum, UniProt P62344)	cell-free assay	competition with immobilised ligand	1 µM		remaining binding	57%
CN1C[C@H](C(=O)N[C@]2(C)O[C@@]3(O)[C@@H]4CCCN4C(=O)[C@H](Cc4ccccc4)N3C2=O)C[C@@H]2c3cccc4[nH]cc(c34)C[C@H]21	ADRB1					EC50	8.33 µM
CC(C)(C)c1cnc(CSc2cnc(NC(=O)C3CCN(CCCCCSc4cccc5c4CN(C4CCC(=O)NC4=O)C5=O)CC3)s2)o1 (stereo not shown)	HEK293T		trypan blue exclusion	500 nM	24 h	viability	90.1% and 92.2% and 94.8%
CCc1ccccc1C(=O)Nc1n[nH]c2c(C)c(F)c(C3C(C#N)=C(C)N(C)C(C)=C3C#N)cc12	SLC6A2 (Homo sapiens, UniProt P23975)	ligand displacement		10 µM		inhibition	2.8%
